# Results of several laboratories.
# Every numbered part comes from another study and shows a few of its results, in no order. Positions count from the first letter of the parent shown.

# Series 1 — technique: protein-binding microarray; molecule type: double-stranded DNA, one strand shown; matrix: in vitro; tested at: 2540 nM top; setting: 60-bp whole probe; together with: salmon DNA 0.4 mg/ml; relative to: random background probes; direction: higher = stronger binding; shared flanks, not repeated: GCCTAGCAC … GTCTTGATTCGCTTGACGCTGCTG
# Target: Interferon regulatory factor 3, full length, phosphomimetic (IRF3, Homo sapiens, UniProt Q14653, residues 1-427, S386D/S396D/S398D/S402D/T404D/S405D)
# Chain of UniProt Q14653 (whole entry, unmodified, looked up): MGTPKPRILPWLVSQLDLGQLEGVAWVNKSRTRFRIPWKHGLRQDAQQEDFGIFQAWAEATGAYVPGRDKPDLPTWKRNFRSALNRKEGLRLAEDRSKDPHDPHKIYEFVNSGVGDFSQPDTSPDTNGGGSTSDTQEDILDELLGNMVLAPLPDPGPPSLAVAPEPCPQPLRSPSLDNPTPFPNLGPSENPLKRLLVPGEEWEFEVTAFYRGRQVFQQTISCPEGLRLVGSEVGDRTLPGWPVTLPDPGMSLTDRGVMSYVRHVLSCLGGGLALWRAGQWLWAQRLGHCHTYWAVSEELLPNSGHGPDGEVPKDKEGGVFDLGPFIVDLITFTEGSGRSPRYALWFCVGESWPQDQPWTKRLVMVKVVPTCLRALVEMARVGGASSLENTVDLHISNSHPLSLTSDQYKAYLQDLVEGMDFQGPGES
Sequence,fitted relative affinity [z-score]
GACGGTTCCGATTTCGGGACGTGCTAG,4.29
TTAAAAAAAAAAAACTGTAACGTGCTA,-0.466
TTAGGTTTGGGGACTGGGTTAGTGCTA,-0.886
GACGATCTCAGTTTTGAGACGTGCTAG,1.13
GACGGACTGGGGTAGCGGGACGTGCTA,-0.921

# Series 2 — target: CCND2, cyclin fold, Cln2 fusion (human); technique: yeast growth competition, sequencing; matrix: yeast; setting: strong parent motif; relative to: not given; direction: higher = stronger binding
# Starting sequence: INSM1 docking peptide (human); PKAIRKLHFEDEV; partner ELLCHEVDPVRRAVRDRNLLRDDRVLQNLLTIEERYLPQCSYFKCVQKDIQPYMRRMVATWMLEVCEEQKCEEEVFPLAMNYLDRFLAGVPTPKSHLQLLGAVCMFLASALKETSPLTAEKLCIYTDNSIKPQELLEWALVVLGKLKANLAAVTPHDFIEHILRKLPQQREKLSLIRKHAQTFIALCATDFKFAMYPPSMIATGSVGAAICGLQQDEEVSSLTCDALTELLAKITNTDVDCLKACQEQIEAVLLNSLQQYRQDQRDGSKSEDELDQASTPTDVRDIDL
Substitution,normalised enrichment score
F9P,0.289
H8C,3.44
H8A,2.25
I4Q,1.64
I4G,0.33
I4F,0.309
H8M,2.41
R5T,0.405

# Series 3 — technique: RNA Bind-n-Seq; molecule type: RNA; matrix: in vitro; tested at: not given; setting: RNA with constant flanks, ends assumed; relative to: input RNA pool; direction: higher = stronger binding
# Target: RING finger protein unkempt homolog, zinc fingers 1-6, GST-SBP tag (UNK, Homo sapiens, UniProt Q9C0B0, residues 30-357)
# Chain of UniProt Q9C0B0 (30-357, looked up): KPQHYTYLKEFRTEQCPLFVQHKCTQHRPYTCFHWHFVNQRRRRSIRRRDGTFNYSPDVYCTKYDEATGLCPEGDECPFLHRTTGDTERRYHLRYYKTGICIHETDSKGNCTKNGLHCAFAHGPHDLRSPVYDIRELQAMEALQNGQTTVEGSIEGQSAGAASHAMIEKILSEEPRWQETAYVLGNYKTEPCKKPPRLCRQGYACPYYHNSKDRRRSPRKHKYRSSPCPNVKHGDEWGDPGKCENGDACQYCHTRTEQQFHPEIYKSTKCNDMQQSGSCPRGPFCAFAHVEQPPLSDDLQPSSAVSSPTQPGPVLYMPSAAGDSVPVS
# Shared flanks, not repeated: GGGAGUUCUACAGUCCGACGAUC … CAACAGAGGAUUGAGCAUCA
Sequence,bound/input enrichment [ratio]
AGGCCUUGGUUUACCCCGAGAUCCAUCUAUAUGGAAGCAUCGACAGUGGACUGUAAUGAUUCCGGGCUUUUAAACUUCCCAGCCAGAUUGCCUGCCGACACACAGAUUCUGCUCCUACAG,0.217
AUUUGGUCUCUGUCCCCCCCCGGGGGGGGCGGGGGGGGCGAGCCCAGCCCCUCCGGUGCGACCCGGAAUGAAGCUGGACAGUGCCGAAGAGAAGUCGGGGGUCGGCUGCUCCCUGCCUGC,0.105
CUCAGAAUAAAGUCAGAGCUUGGAUUAAAUUUCUAUCAGCAAGUGAAGCUGGUCAAUUUCAUCCGAAGGCAAGUUCACCAAUGCAAGUGCUACAGUUGCCAUGUAAAGUUCAAAUCCAAA,0.136
CCUGCCUCAGCCUCCCAAGUAGCUGGUACUACAGGUGCGUGCCACCACACCUGGCUUAUUUCCGUUAUUUUAGUAGAGAUAGGGUUUCACCAUGUUGGCCAGGCUGGUCUCGGAACUCCU,0.457
GCUGAACCUGAUAUUAUUGAACAACUGGUGGAAUUUGCUUAUACUGCUAGAAUUUCUGUGAACCGCAACAAUGUUCAGUCUUUGUUAGAUGCAGCAAAUCAGUACCAGAUUGAACCUGUG,0.144
CAUCUGUAAGCAGUGUGGCCUCUCUGCAGAGGUGGCAGACGUGAUUAGAACUGUGUGUGUCUCCGAGGUGACAGUGUUUAUAGCUUAUUAAAUAGUUGAUACAGAUGCCCUUAUGAAAAC,3.07

# Further values, each from its own experiment
Molecule,target,test,system,conditions,scale,quantity,value
"PhoQ, residues 284 288 289 292 302 303 TLSLKA","PhoP, residues 12 14 15 18 19 NIMAP (Escherichia coli, UniProt P23836)","Sort-seq, refers to: YFP reporter",E. coli,"PhoQ-PhoP variant library, together with: 10 µM Mg2+","relative to: high Mg2+ state, higher = stronger signaling",fold induction,0.586

# Some of these lines once more (series 1):
Sequence,fitted relative affinity [z-score]
TTAAAAAAAAAAAACTGTAACGTGCTA,-0.466
TTAGGTTTGGGGACTGGGTTAGTGCTA,-0.886
